# Published values pooled from the literature.
# Values joined by “and” are separate records of one study, mostly repeats; a detail may differ.
# HDAC2: Histone deacetylase 2 (HDAC2, Homo sapiens, UniProt Q92769)
# Proline--tRNA ligase: Proline--tRNA ligase (Plasmodium falciparum, UniProt Q8I5R7)
# BIRC2 BIR3 domain: Baculoviral IAP repeat-containing protein 2, BIR3 domain (BIRC2, Homo sapiens, UniProt Q13490)
# CA9: Carbonic anhydrase 9 (CA9, Homo sapiens, UniProt Q16790)
# NOS3: Nitric oxide synthase 3 (NOS3, Bos taurus, UniProt P29473)
Structure (SMILES),target,test,test system,setting,how to read,selectivity ratio
COc1ccc(CN(CCCCCCC(=O)NO)Cc2ccc(OC)c(OC)c2)cc1OC,HDAC2,"deacetylase activity, inhibitor, fluorescence",,together with: Boc-Lys(Ac)-AMC substrate,relative to: IC50 HDAC2 over IC50 HDAC1,4.1
COc1cncc(-c2cc(F)cc(CNC(=O)c3cc(N4CC[C@@](C#N)(C5CC5)C4=O)cc(C)n3)c2)c1,Proline--tRNA ligase,"aminoacylation activity, inhibitor, malachite green",,,relative to: human over P. falciparum IC50,10.6
CN(C)CCNC(=O)c1cccc2c(NCCCCc3c(N)nc(N)nc3N)c3ccccc3nc12,(CCUG)6 RNA,"binding, ITC",,,relative to: Kd RNA A over Kd (CCUG)6,1.4
O=C(CCCCCCN(Cc1ccc2c(c1)OCO2)Cc1ccc2c(c1)OCO2)NO,HDAC2,"deacetylase activity, inhibitor, fluorescence",,together with: Boc-Lys(Ac)-AMC substrate,relative to: IC50 HDAC2 over IC50 HDAC1,8.4
Cc1cc(N2CC[C@@](C#N)(C3CC3)C2=O)cc(NC(=O)Cc2ccccc2)n1,Proline--tRNA ligase,"aminoacylation activity, inhibitor, malachite green",,,relative to: human over P. falciparum IC50,2.1
"O=C(O)C(=O)O.O=C(c1ccc(NCCF)cc1)C1CCN(C2Cc3ccccc3CC2O)CC1 (single isomer, unassigned; (-))",sigma-1 receptor and VAChT,binding,guinea pig,,relative to: Ki VAChT over Ki sigma-1,> 5000 and 6030
CN[C@@H](C)C(=O)N[C@H]1CN(C(=O)Cc2ccccc2)CC[C@H]2CC[C@@H](C(=O)NCc3ccc([N+](=O)[O-])cc3)N2C1=O,BIRC2 BIR3 domain,fluorescence polarization,,,relative to: Ki XIAP over Ki cIAP1,1150
NS(=O)(=O)c1ccc(Nc2nc3nccc(-c4ccc5ccccc5c4)n3n2)cc1,CA9,inhibitor,,,relative to: Ki hCA IV over Ki CA9,142
CNCc1c(OCc2ccc(F)cc2)ccc2ccccc12,"Sodium-dependent noradrenaline transporter (SLC6A2, Homo sapiens, UniProt P23975)",binding,,,relative to: Ki SERT over NET,< 2 fold
O=C(CCCCCCNCc1ccccc1)NO,HDAC2,"deacetylase activity, inhibitor, fluorescence",,together with: Boc-Lys(Ac)-AMC substrate,relative to: IC50 HDAC2 over IC50 HDAC1,9.1
COCCCn1nc(I)c2c(N)ncnc21,"Proto-oncogene tyrosine-protein kinase receptor Ret (RET, Homo sapiens, UniProt P07949)",,,,relative to: TRKA over RET,50 fold
CN[C@@H](C)C(=O)N[C@H]1CN(C(=O)Cc2ccccc2)CC[C@H]2CC[C@@H](C(=O)NCc3ccc(F)cc3)N2C1=O,BIRC2 BIR3 domain,fluorescence polarization,,,relative to: Ki XIAP over Ki cIAP1,218
Cc1ccc(C[C@H](NC(=O)CN2CCCc3cc4cc(C(=O)NCCNC(=O)CCCC[C@@H]5SC[C@@H]6NC(=O)N[C@@H]65)c(=O)oc4cc32)C(=O)NC/C=C/S(=O)(=O)c2ccccc2)cc1,"Cathepsin B (CTSB, Homo sapiens, UniProt P07858)",inhibitor,,kinact/Ki,relative to: rhodesain over target,130
COc1cc(-c2ccnc3nc(Nc4ccc(S(N)(=O)=O)cc4)nn23)cc(OC)c1OC,CA9,inhibitor,,,relative to: Ki hCA II over Ki CA9,2.3
O=C(CCCCCCNCc1ccc(F)cc1)NO,HDAC2,"deacetylase activity, inhibitor, fluorescence",,together with: Boc-Lys(Ac)-AMC substrate,relative to: IC50 HDAC2 over IC50 HDAC1,6.8
CCc1ccc(CNC(=O)[C@@H]2CC[C@@H]3CCN(C(=O)Cc4ccccc4)C[C@H](NC(=O)[C@H](C)NC)C(=O)N32)cc1,BIRC2 BIR3 domain,fluorescence polarization,,,relative to: Ki XIAP over Ki cIAP1,155
O[C@@H]1[C@H](O)[C@@H](CNC(=S)Nc2ccccc2)N2CCC[C@@H](O)[C@H]12,"Alpha-mannosidase 2 (Homo sapiens, UniProt Q16706)",inhibitor,,together with: fluorogenic mannoside substrate,relative to: lysosomal over Golgi mannosidase Ki,3.1
O=C(CCCCCCNCc1ccc([N+](=O)[O-])cc1)NO,HDAC2,"deacetylase activity, inhibitor, fluorescence",,together with: Boc-Lys(Ac)-AMC substrate,relative to: IC50 HDAC2 over IC50 HDAC1,13
CN[C@@H](C)C(=O)N[C@H]1CN(C(=O)Cc2ccccc2)CC[C@H]2CC[C@@H](C(=O)NCc3cccc(C(F)(F)F)c3)N2C1=O,BIRC2 BIR3 domain,fluorescence polarization,,,relative to: Ki XIAP over Ki cIAP1,117
Cc1cc(N)nc(C[C@@H]2CNC[C@@H]2OCCCCCc2cccc(F)c2)c1,NOS3,"enzyme activity, inhibitor",,,relative to: Ki NOS3 over Ki nNOS,37
CN[C@@H](C)C(=O)N[C@H]1CN(C(=O)Cc2ccccc2)CC[C@H]2CC[C@@H](C(=O)NCc3ccc(Cl)cc3)N2C1=O,BIRC2 BIR3 domain,fluorescence polarization,,,relative to: Ki XIAP over Ki cIAP1,791
Cc1cc(N2CCC(CO)(C3CC3)C2=O)cc(C(=O)NCc2cc(F)cc(-c3cnn(C)c3)c2)n1 (centres unmarked),Proline--tRNA ligase,"binding, microscale thermophoresis",,,relative to: human over P. falciparum Kd,10.3
CN[C@@H](C)C(=O)N[C@H]1CN(C(=O)Cc2ccccc2)CC[C@H]2CC[C@@H](C(=O)NCc3ccc(C(N)=O)cc3)N2C1=O,BIRC2 BIR3 domain,fluorescence polarization,,,relative to: Ki XIAP over Ki cIAP1,239
Cc1cc(N)nc(C[C@H]2CNC[C@H]2OCCC/C=C/c2cccc(F)c2)c1,NOS3,"enzyme activity, inhibitor",,,relative to: Ki NOS3 over Ki nNOS,4
CN[C@@H](C)C(=O)N[C@H]1CN(C(=O)Cc2ccccc2)CC[C@H]2CC[C@@H](C(=O)NCc3ccccc3Cl)N2C1=O,BIRC2 BIR3 domain,fluorescence polarization,,,relative to: Ki XIAP over Ki cIAP1,70
CSCC[C@H](NC(=O)[C@H](CC(C)C)NC(=O)[C@H](Cc1c[nH]cn1)NC(=O)CNC(=O)[C@@H](NC(=O)[C@H](C)NC(=O)[C@H](Cc1c[nH]c2ccccc12)NC(=O)[C@H](Cc1c[nH]cn1)NC(=O)[C@H](CC(N)=O)NC(=O)CN)C(C)C)C(N)=O,"Gastrin-releasing peptide receptor (GRPR, Homo sapiens, UniProt P30550)",binding,HuTu80 and BALB/3T3 hGRPR,,relative to: GRPR over NMBR,> 200 fold

# For quick reference, copied from above:
Structure (SMILES),target,test,test system,setting,how to read,selectivity ratio
O=C(CCCCCCNCc1ccc(F)cc1)NO,HDAC2,"deacetylase activity, inhibitor, fluorescence",,together with: Boc-Lys(Ac)-AMC substrate,relative to: IC50 HDAC2 over IC50 HDAC1,6.8
CCc1ccc(CNC(=O)[C@@H]2CC[C@@H]3CCN(C(=O)Cc4ccccc4)C[C@H](NC(=O)[C@H](C)NC)C(=O)N32)cc1,BIRC2 BIR3 domain,fluorescence polarization,,,relative to: Ki XIAP over Ki cIAP1,155
